Measurements from different studies.
A part holds a random share of what one study measured. Changes are numbered by the printed parent chain.

Set 1 — read-out: binding; method: phage display NGS; form: peptide; concentration: concentration not given; baseline: input library
Target: UDP-N-acetylglucosamine--peptide N-acetylglucosaminyltransferase 110 kDa subunit (OGT, Homo sapiens, UniProt O15294)
Chain of UniProt O15294 (whole entry, looked up): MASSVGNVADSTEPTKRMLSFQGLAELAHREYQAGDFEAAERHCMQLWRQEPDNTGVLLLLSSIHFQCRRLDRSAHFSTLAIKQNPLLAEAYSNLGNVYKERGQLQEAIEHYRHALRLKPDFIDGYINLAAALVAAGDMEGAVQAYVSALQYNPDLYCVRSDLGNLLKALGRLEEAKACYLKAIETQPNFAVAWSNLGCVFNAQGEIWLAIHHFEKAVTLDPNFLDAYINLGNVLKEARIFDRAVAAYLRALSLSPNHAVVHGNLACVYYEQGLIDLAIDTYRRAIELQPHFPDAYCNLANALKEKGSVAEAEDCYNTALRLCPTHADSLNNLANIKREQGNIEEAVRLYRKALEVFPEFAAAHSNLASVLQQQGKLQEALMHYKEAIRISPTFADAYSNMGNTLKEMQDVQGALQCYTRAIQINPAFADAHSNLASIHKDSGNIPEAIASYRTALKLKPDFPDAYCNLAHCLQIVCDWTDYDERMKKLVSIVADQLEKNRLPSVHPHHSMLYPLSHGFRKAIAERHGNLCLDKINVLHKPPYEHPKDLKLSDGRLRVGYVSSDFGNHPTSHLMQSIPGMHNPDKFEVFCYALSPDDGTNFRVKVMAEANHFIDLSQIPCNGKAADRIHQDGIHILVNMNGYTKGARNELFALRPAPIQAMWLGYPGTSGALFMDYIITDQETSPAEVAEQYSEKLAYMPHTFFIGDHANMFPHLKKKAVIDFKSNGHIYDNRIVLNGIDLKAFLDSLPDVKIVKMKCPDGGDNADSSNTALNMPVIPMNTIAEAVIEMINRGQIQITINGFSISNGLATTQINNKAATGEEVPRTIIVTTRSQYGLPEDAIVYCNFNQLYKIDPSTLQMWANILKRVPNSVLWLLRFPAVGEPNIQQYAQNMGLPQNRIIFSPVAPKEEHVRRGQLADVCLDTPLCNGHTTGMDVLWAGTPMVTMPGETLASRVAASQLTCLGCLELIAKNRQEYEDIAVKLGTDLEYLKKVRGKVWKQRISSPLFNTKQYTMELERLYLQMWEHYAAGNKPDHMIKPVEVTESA
Under “enrichment fold change”, `THIMTGHHGPIKGRD` is recorded as 3.77.
`QPEWRPQYQIRITSM`: “enrichment fold change” 5.4.
`FVNTWHYPKTANYHA` — result for “enrichment fold change”: 3.25.
`WDYIPMYQIQSVRG`: “enrichment fold change” 9.37.
Under “enrichment fold change”, `QWQYNLMPYYSINYK` is recorded as 1.97.
Under “enrichment fold change”, `SSNEPHYPPKYQMVI` is recorded as 2.43.
For `SFKHYDHTFHYHEGS`, “enrichment fold change” read 8.47.
For `TWEWPYHRHMQHPFA`, “enrichment fold change” read 15.

Set 2 — target: inorganic phosphate, free oxyanion; method: microfluidic competitive inhibition; medium: in vitro, cell-free expressed; concentration: not given; direction: lower = stronger binding
Notes: derived from inhibition constants, unchanged parent 615000 nM
Parent: PafA, mature enzyme, eGFP fusion (Elizabethkingia meningoseptica, UniProt Q9KJX5); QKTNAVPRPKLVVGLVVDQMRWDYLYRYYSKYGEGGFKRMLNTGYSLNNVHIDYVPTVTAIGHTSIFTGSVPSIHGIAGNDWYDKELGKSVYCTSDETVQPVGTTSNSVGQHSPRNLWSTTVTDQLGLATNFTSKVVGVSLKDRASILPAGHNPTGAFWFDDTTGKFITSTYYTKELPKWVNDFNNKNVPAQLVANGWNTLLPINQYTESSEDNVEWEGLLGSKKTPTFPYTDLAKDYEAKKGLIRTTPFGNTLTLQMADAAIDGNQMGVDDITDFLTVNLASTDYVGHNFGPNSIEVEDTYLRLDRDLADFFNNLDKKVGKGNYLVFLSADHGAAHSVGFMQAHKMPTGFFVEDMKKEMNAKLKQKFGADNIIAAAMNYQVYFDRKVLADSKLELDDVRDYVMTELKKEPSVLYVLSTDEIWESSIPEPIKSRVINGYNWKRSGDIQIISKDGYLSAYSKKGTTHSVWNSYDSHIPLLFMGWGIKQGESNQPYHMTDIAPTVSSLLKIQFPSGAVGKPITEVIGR
`N379V` — result for “phosphate dissociation constant”: 573 µM.
`A500G` — result for “phosphate dissociation constant”: 438 µM.
`V503A`: “phosphate dissociation constant” 544 µM.
Under “phosphate dissociation constant”, `T104G` is recorded as 630 µM.
For `I431V`, “phosphate dissociation constant” read 565 µM.
`M481V`: “phosphate dissociation constant” 588 µM.
`S119V` — result for “phosphate dissociation constant”: 591 µM.
Under “phosphate dissociation constant”, `I524G` is recorded as 424 µM.

Set 3 — target: CCNB3, cyclin fold, Cln2 fusion (human); method: yeast growth competition, sequencing; medium: yeast; notes: strong parent motif; baseline: not given; direction: higher = stronger binding; parent: viral docking peptide; TSVRRALFTGGSD
Under “normalised enrichment score”, `TSVRRALFTCGSD [G10C]` is recorded as 1.97.
`TSHRRALFTGGSD [V3H]` — result for “normalised enrichment score”: 0.224.
`TSFRRALFTGGSD [V3F]` — result for “normalised enrichment score”: 0.235.
`TSVRRALITGGSD [F8I]`: “normalised enrichment score” 0.57.
Under “normalised enrichment score”, `TSCRRALFTGGSD [V3C]` is recorded as 1.68.
For `TSVRRSLFTGGSD [A6S]`, “normalised enrichment score” read 5.21.
For `TSVRRALFTPGSD [G10P]`, “normalised enrichment score” read 1.68.
Under “normalised enrichment score”, `TSSRRALFTGGSD [V3S]` is recorded as -0.0994.

Single results of other studies
`O=C1CCC(N2Cc3c(ccc4c3OCC43CCN(Cc4ccccc4)CC3)C2=O)C(=O)N1` (stereo not shown) gave a plasma concentration of 263 ng/mL (male Sprague Dawley rats, plasma; intravenous, 1 mg/kg, 0.5 h).
